Assay results from different studies.
Compare with care: the assays were run in different laboratories. ± marks the error that the study gave.

| SMILES | assay | system | setting | concentration |
| --- | --- | --- | --- | --- |
| CC(C)C[C@H](NC(=O)[C@H](CCC(=O)O)NC(=O)[C@H](CCC(=O)O)NC(=O)[C@H](CC(=O)O)NC(=O)[C@H](CCC(=O)O)NC(=O)[C@H](CCC(=O)O)NC(=O)[C@H](CCC(=O)O)NC(=O)[C@@H](N)CC(=O)O)C(=O)O | – | rat, CSF | intravenous, 11.0 mg/kg, 150 min | 4.25 ng/mL |
| O=c1[nH]c(=O)[nH]c(=O)[nH]1 | LC-MS/MS | rat CD IGS, female, pregnant, serum | oral, 1000 mg/kg/day, 10 days, range | 10800 to 314000 ng/mL |
| O=C(NCCS)c1cccc(C(=O)NCCS)c1 | – | male Sprague-Dawley rat, plasma | intravenous, 1 mg/kg, 30 min | 230 ng/mL |
| Nc1nc(N)nc(N)n1 | LC-MS/MS | rat, pregnant female, amniotic fluid | oral, 1000 mg/kg/day, 10 days | 472000 ng/mL |
| COc1ccc(C(=O)NCc2cc(C(C)C)no2)cc1OC1CCN(C)CC1 | – | male Sprague-Dawley rat, CSF | intravenous, 1 mg/kg, 15 min | 11.8 ng/g |
| c1cc2ccc3cccc4ccc(c1)c2c34 | – | male Wistar rats, plasma | oral, 4 mg/kg, 24 h | 1.4 ± 0.2 ng/g |
| Cc1c(P(=S)(c2ccccc2)c2ccccc2)n2ccccc2[n+]1C/C=C/c1ccccc1 | – | mouse, brain | intraperitoneal, 10 mg/kg, 24 h | 24 ng/g |
| C[C@H]1N=C(c2ccccc2F)c2cc(Br)ccc2-n2cnc(C(=O)O)c21 | – | Swiss Webster mice, blood | oral, 25 mg/kg, 60 min, propylene glycol 40%, HPMC 60% | 239 nM |

Some of these lines once more:
| SMILES | assay | system | setting | concentration |
| --- | --- | --- | --- | --- |
| Cc1c(P(=S)(c2ccccc2)c2ccccc2)n2ccccc2[n+]1C/C=C/c1ccccc1 | – | mouse, brain | intraperitoneal, 10 mg/kg, 24 h | 24 ng/g |
